Experimental data pooled from the literature.
Numbers after ± are the reported error.

Structure (SMILES) | system | conditions | tissue uptake
CCCC[C@H](NC(=O)CCCCCCCNC(=O)CN1CCN(CC(=O)O)CCN(CC(=O)O)CC1)C(=O)N[C@H]1CC(=O)NCCCC[C@@H](C(N)=O)NC(=O)[C@H](Cc2c[nH]c3ccccc23)NC(=O)[C@H](CCCNC(=N)N)NC(=O)[C@@H](Cc2ccccc2)NC(=O)[C@H](Cc2c[nH]cn2)NC1=O [fluorine-18 labelled] | C57 mice B16-F10 melanoma, liver | intravenous, 0.37 MBq, 0.5 h | 3.05 ± 0.51 %ID/g
CCCC[C@H](NC(=O)CNC(=O)CNC(=O)[C@H](CCCCNC(=O)C(C)c1ccc(CC(C)C)cc1)NC(=O)CN1CCN(CC(=O)O)CCN(CC(=O)O)CCN(CC(=O)O)CC1)C(=O)N[C@H]1CC(=O)NCCCC[C@@H](C(N)=O)NC(=O)[C@H](Cc2c[nH]c3ccccc23)NC(=O)[C@H](CCCNC(=N)N)NC(=O)[C@@H](Cc2ccccc2)NC(=O)[C@H](Cc2c[nH]cn2)NC1=O (stereo partly drawn) [lutetium-177 labelled] | C57 mice, tumour-bearing, tumor | 2 h | 13.8 ± 3.37 %ID/g
O=C(NCC1OC2CCC=CCCC2O1)c1ccc([18F])nc1 (stereo not drawn) | healthy female BALB/c nude mice, large intestine | intravenous, 7.4 MBq per mouse, 120 min | 5.1 ± 0.2 %ID/g
COc1ccc(Nc2nc(Nc3ccc(OCCOCCOCC[18F])cc3)ncc2Br)cc1 | ICR mice, S180 tumour-bearing, kidney | intravenous, 370 kBq, 60 min | 5.89 ± 0.48 %ID/g
CCCC[C@H](NC(=O)COCCOCCNC(=O)CN1CCN(CC(=O)O)CCN(CC(=O)O)CC1)C(=O)N[C@H]1CC(=O)NCCCC[C@@H](C(N)=O)NC(=O)[C@H](Cc2c[nH]c3ccccc23)NC(=O)[C@H](CCCNC(=N)N)NC(=O)[C@@H](Cc2ccccc2)NC(=O)[C@H](Cc2c[nH]cn2)NC1=O [fluorine-18 labelled] | C57 mice B16-F10 melanoma, tumor | intravenous, 0.37 MBq, 0.5 h | 12.1 ± 0.79 %ID/g
CCCC[C@H](NC(=O)CNC(=O)CNC(=O)[C@H](CCCCNC(=O)[C@H](CC(=O)O)NC(=O)C(C)c1ccc(CC(C)C)cc1)NC(=O)CN1CCN(CC(=O)O)CCN(CC(=O)O)CCN(CC(=O)O)CC1)C(=O)N[C@H]1CC(=O)NCCCC[C@@H](C(N)=O)NC(=O)[C@H](Cc2c[nH]c3ccccc23)NC(=O)[C@H](CCCNC(=N)N)NC(=O)[C@@H](Cc2ccccc2)NC(=O)[C@H](Cc2c[nH]cn2)NC1=O (stereo partly drawn) [lutetium-177 labelled] | C57 mice, tumour-bearing, stomach | 2 h | 0.78 ± 0.26 %ID/g
Cc1cc(C)n(CCN(CCN)CCCCCCNC(=O)[C@@H](N)Cc2c[nH]cn2)n1.[99Tc+].[C-]#[O+].[C-]#[O+].[C-]#[O+] | BALB/c nude mice, A549 xenograft, intestine | intravenous, 24 h | 1.1 ± 0.17 %IA/g
O=C(O)CCCOc1ccc([18F])cc1-c1cc(-c2ccccc2C(F)(F)F)n(-c2ccccc2)n1 | mice, small intestine | intravenous, 15 min | 1.68 ± 0.37 %ID/g
COc1ccc(Nc2nc(Nc3ccc(OCCOCC[18F])cc3)ncc2Br)cc1 | ICR mice, S180 tumour-bearing, lung | intravenous, 370 kBq, 15 min | 6.13 ± 0.48 %ID/g

Some of these lines once more:
Structure (SMILES) | system | conditions | tissue uptake
CCCC[C@H](NC(=O)CNC(=O)CNC(=O)[C@H](CCCCNC(=O)[C@H](CC(=O)O)NC(=O)C(C)c1ccc(CC(C)C)cc1)NC(=O)CN1CCN(CC(=O)O)CCN(CC(=O)O)CCN(CC(=O)O)CC1)C(=O)N[C@H]1CC(=O)NCCCC[C@@H](C(N)=O)NC(=O)[C@H](Cc2c[nH]c3ccccc23)NC(=O)[C@H](CCCNC(=N)N)NC(=O)[C@@H](Cc2ccccc2)NC(=O)[C@H](Cc2c[nH]cn2)NC1=O (stereo partly drawn) [lutetium-177 labelled] | C57 mice, tumour-bearing, stomach | 2 h | 0.78 ± 0.26 %ID/g
O=C(NCC1OC2CCC=CCCC2O1)c1ccc([18F])nc1 (stereo not drawn) | healthy female BALB/c nude mice, large intestine | intravenous, 7.4 MBq per mouse, 120 min | 5.1 ± 0.2 %ID/g
